Earlier results, collected from citations in different studies.
Lines come from different studies, so protocols differ. Values joined by “and” are separate records of one study, mostly repeats; a detail may differ. ± gives the spread as reported.
Sequence of UniProt P46098 (whole entry, looked up): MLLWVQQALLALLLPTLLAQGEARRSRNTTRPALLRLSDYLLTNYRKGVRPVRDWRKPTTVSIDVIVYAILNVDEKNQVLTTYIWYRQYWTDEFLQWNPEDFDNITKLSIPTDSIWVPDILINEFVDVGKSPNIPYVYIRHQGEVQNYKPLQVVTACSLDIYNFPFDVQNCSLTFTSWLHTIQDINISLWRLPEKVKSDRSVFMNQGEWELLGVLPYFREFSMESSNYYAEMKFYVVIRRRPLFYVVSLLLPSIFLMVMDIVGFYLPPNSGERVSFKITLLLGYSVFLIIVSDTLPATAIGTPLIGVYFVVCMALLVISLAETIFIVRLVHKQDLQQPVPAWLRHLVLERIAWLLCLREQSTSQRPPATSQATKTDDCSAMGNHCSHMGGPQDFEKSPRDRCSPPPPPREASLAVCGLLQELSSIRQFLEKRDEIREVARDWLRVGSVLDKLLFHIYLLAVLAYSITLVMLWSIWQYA
Sequence of UniProt O95264 (whole entry, looked up): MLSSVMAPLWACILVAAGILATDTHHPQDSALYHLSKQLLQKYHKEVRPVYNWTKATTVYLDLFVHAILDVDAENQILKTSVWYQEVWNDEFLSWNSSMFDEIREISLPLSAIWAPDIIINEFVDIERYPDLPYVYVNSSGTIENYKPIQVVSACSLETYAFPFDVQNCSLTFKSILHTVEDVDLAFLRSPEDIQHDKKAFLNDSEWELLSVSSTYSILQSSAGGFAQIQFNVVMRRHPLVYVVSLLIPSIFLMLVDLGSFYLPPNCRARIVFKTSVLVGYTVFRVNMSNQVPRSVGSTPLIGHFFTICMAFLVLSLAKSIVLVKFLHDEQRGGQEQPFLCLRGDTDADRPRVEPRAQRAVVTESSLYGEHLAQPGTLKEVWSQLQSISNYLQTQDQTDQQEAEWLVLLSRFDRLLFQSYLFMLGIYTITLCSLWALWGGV
Sequence of UniProt P0DOF5 (whole entry, looked up): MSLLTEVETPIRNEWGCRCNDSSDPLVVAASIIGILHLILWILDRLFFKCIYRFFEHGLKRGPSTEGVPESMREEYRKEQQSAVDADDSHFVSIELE
Sequence of UniProt P21554 (whole entry, looked up): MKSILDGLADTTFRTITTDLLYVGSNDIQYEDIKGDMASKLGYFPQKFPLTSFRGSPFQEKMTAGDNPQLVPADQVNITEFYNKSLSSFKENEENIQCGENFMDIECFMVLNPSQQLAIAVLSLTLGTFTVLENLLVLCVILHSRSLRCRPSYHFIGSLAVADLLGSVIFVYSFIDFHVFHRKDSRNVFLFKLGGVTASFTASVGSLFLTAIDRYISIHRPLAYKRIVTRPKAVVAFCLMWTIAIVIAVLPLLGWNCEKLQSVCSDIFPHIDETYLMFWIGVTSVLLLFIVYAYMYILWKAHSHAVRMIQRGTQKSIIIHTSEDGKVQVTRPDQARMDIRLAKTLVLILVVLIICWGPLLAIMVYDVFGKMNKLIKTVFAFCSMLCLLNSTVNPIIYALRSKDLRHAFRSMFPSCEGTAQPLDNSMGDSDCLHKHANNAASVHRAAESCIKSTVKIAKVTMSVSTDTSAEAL
Sequence of UniProt P33533 (whole entry, looked up): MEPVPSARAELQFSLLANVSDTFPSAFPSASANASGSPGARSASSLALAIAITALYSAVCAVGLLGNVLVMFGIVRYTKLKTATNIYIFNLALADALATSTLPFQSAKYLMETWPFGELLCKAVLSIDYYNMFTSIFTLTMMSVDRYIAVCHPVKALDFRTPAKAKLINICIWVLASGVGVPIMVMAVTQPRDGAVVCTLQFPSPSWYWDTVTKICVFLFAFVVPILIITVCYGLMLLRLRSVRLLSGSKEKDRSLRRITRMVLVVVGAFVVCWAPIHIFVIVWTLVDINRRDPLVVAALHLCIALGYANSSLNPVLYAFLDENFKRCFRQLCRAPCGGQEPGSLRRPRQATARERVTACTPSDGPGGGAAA
Sequence of UniProt Q14973 (whole entry, looked up): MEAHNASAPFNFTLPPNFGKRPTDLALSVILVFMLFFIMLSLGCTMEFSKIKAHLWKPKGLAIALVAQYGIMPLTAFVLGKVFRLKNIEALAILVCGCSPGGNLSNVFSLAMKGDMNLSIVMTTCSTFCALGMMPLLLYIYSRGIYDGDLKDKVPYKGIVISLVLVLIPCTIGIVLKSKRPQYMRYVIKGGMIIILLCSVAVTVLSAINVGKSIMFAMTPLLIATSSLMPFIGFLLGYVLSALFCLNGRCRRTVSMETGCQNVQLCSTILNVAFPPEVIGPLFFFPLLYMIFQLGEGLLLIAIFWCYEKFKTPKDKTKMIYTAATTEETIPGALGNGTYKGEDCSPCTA
Sequence of UniProt P61073 (whole entry, looked up): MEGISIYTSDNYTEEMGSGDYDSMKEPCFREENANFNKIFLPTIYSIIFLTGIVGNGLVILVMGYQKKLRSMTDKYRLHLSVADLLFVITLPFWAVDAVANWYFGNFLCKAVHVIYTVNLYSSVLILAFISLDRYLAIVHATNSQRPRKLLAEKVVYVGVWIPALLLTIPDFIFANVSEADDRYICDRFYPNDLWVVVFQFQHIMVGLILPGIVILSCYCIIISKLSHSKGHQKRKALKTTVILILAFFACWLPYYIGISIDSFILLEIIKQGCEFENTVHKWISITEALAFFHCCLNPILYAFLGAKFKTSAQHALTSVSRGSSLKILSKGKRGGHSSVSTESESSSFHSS
Sequence of UniProt P30547 (whole entry, looked up): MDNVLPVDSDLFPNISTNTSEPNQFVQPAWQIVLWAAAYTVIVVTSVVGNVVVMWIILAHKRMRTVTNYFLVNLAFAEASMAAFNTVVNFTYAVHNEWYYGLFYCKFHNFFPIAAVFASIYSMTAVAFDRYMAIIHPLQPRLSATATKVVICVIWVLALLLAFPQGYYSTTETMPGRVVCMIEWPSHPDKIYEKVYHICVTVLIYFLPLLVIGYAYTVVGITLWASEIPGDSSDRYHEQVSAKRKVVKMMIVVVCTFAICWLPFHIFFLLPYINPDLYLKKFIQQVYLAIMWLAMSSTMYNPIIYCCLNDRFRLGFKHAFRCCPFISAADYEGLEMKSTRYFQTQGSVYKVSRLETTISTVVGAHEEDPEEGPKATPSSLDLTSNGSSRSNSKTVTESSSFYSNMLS
Sequence of UniProt P25084 (whole entry, looked up): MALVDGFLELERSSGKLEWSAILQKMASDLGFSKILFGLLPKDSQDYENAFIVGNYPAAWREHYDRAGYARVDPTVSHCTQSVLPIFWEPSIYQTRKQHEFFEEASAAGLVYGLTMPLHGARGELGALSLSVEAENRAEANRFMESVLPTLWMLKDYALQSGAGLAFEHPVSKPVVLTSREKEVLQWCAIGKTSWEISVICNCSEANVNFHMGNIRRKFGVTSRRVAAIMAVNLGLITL
Sequence of UniProt P09470 (whole entry, looked up): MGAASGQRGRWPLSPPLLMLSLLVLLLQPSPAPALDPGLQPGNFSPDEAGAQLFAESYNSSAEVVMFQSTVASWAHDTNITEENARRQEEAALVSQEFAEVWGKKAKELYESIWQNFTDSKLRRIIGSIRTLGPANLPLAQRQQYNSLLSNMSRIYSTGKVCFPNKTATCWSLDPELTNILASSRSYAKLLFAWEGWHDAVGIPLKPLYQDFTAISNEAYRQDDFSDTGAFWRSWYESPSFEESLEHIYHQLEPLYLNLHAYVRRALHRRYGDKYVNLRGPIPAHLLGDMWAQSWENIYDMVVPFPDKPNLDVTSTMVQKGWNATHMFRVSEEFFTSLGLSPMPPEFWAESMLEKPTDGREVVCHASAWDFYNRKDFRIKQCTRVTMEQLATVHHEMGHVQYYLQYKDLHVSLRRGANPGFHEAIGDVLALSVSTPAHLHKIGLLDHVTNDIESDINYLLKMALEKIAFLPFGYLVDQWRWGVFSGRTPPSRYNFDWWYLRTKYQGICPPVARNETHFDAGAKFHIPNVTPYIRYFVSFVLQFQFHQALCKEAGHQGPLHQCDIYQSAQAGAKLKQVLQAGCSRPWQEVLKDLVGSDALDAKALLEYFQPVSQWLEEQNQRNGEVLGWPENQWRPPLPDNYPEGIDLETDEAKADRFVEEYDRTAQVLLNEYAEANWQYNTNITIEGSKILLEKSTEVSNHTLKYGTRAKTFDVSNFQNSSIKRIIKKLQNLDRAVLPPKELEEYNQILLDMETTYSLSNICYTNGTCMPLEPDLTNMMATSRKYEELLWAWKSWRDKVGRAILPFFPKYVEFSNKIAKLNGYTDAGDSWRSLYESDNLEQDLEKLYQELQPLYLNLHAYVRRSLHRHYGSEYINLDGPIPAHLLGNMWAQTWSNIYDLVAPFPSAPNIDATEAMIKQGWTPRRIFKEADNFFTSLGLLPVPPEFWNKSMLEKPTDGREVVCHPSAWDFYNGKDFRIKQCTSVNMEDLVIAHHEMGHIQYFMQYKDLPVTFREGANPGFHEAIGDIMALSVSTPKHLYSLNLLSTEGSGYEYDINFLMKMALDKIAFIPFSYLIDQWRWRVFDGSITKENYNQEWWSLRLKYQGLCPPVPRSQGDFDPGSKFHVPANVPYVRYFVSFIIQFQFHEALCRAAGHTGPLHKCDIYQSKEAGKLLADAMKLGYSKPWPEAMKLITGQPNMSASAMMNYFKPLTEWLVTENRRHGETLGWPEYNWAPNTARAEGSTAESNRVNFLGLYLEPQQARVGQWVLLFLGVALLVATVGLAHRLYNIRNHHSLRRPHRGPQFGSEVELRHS
Sequence of UniProt P97266 (whole entry, looked up): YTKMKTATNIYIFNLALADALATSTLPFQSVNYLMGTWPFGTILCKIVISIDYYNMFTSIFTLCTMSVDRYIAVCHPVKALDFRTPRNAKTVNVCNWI
Sequence of UniProt C7C422 (whole entry, looked up): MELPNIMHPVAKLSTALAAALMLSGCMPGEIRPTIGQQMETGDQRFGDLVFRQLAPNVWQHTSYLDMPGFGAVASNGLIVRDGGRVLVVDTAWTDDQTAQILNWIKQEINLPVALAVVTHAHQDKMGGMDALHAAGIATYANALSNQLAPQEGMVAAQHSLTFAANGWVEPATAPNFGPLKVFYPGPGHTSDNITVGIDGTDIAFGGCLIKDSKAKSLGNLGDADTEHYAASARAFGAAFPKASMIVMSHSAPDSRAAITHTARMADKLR

For CCCCCc1cc(O)c2c(c1)OC(C)(C)C1CCC(C)=CC21 (single isomer, unassigned; (-)), the Cmax was 254 nM (human, plasma; inhalation, 54 mg).
CCCCCCCCCc1c(C(=O)NCCc2ccc(N3CCCCC3)cc2)[nH]c2ccc(Cl)cc12 — result for “cooperativity factor alpha”: 6.8 (CNR1 (Homo sapiens, UniProt P21554); allosteric modulator, radioligand binding; with: [3H]CP55,940).
CN1CCN(c2nc3ccccc3nc2Cl)CC1: “recovery time from inhibition” ~8 min and < 8 min (Serotonin 3 (5-HT3) receptor (Homo sapiens, UniProt O95264+P46098); ion current; concentration not given, 5-HT3AB receptor, with: serotonin).
For CC(C)[C@@H](CN1CC[C@@](C)(c2cccc(C(N)=O)c2)[C@@H](C)C1)NC(=O)[C@H]1Cc2ccc(O)cc2CN1, the selectivity ratio was 175 (OPRK1 (Homo sapiens, UniProt P41145); antagonist; reference: Ke mu over Ke kappa).
CC(=O)N[C@H]1[C@@H](OC[C@H](NC(=O)CNC(=O)[C@@H]2CCCN2C(=O)[C@H](C)NC(=O)[C@@H]2CCCN2C(=O)[C@@H](N)CCCNC(=N)N)C(=O)N[C@H](C(=O)N[C@@H](C)C(=O)N2CCC[C@H]2C(=O)N2CCC[C@H]2C(=O)N[C@@H](C)C(=O)N[C@@H](Cc2c[nH]cn2)C(=O)NCC(=O)O)[C@@H](C)O)O[C@H](CO)[C@H](O)[C@@H]1O gave a koff of 0.0312 s⁻¹ (16 A monoclonal antibody; SPR).
CSCC[C@H](NC(=O)[C@H](Cc1ccccc1)NC(=O)CNC(=O)[C@@H](C)NC(=O)[C@@H](N)Cc1ccc(O)cc1)C(=O)N1CCC[C@H]1C(=O)N[C@@H](CC(C)C)C(=O)N[C@@H](Cc1c[nH]c2ccccc12)C(=O)NCc1cc(C(F)(F)F)cc(C(F)(F)F)c1 has a Ke of 10 ± 2 nM (Substance-P receptor (Cavia porcellus, UniProt P30547); antagonist; guinea pig ileum; with: naloxone 1 µM).
CC(C)C[C@H](NC(=O)c1ccccc1N)C(=O)N[C@@H](Cc1ccccc1)C(=O)N[C@@H](CCCCNc1ccc([N+](=O)[O-])cc1[N+](=O)[O-])C(=O)O gave a Km of 4 to 12 µM (Angiotensin-converting enzyme, C-domain (Mus musculus, UniProt P09470); substrate; C-domain selective substrate).
With CC1=C(C)C(=O)OC(C(C)(O)C2(O)CCC3(O)C4CC5OC56CC=CC(=O)C6(C)C4CCC32C)C1 (stereo not drawn) the IC50 was 6.58 µM (A549; cell growth).
O=C(OCC[18F])C1C2CCC(CC1c1ccc(/C=C\I)cc1)N2 (stereo not drawn): “time to peak uptake” 95 min (SERT; microPET; anaesthetised, midbrain).
For CSCC[C@H](NC(=O)[C@H](Cc1ccccc1)NC(=O)CNC(=O)[C@@H](C)NC(=O)[C@@H](N)Cc1ccc(O)cc1)C(=O)N1CCC[C@H]1C(=O)N[C@@H](CC(C)C)C(=O)N[C@@H](Cc1c[nH]c2ccccc12)C(=O)NCc1cc(C(F)(F)F)cc(C(F)(F)F)c1, the Emax was 92.5 ± 3.1% (OPRM1 (Cavia porcellus, UniProt P97266); agonist; guinea pig ileum; reference: PL-017).
Cc1cc(O)cc(C)c1C[C@H](N)C(=O)N[C@H](C)C(=O)N[C@@H](Cc1ccccc1)C(=O)N[C@@H](CCC(=O)O)C(=O)N[C@H](C(=O)N[C@H](C(=O)NCC(N)=O)C(C)C)C(C)C has a selectivity ratio of 10 (Oprd1 (Rattus norvegicus, UniProt P33533); reference: Ki mu over Ki delta).
Cc1cc(O)cc(C)c1C[C@H](N)C(=O)N[C@@H]1CCNc2ccc(Cc3ccccc3)cc21 gave a stimulation of 81% (Oprm1 (Rattus norvegicus, UniProt P33535); agonist; concentration not given).
For N[C@@H](CCSC[C@H](N)C(=O)O)C(=O)O, the Km was roughly 83 µM (cystathionine beta-synthase; substrate).
CC[C@H](C)C(=O)N1CCC(NC(=O)Nc2ccc(OC(F)(F)F)c(F)c2)CC1 — result for inhibition: “no inhibition” (human CYP2B6; inhibitor; up to solubility limit).
COc1cc(O)c2c(c1)/C=C/C[C@H](O)[C@H](O)C(=O)/C=C\C[C@H](C)OC2=O has a remaining binding of 3.8% (BMP2K (Homo sapiens, UniProt Q9NSY1); 10 µM; reference: control).
CC1=C(C)C(=O)OC(C(C)(O)C2(O)CCC3(O)C4CC5OC56C(O)C=CC(=O)C6(C)C4CCC32C)C1 (stereo not drawn) has an IC50 of 2.95 µM (A549; cell growth).
CC(C)C[C@@H](NC(=O)[C@@H](Cc1ccccc1)NC(=O)[C@H](N)Cc1ccccc1)C(=O)N[C@H](CCCCN)C(=O)N1CCC(N)(C(=O)O)CC1 — result for activity: “inactive” (mu-opioid receptor; concentration not given, selective for kappa-opioid receptor).
The half-life of CN[C@H](CC(C)C)C(=O)N[C@H]1C(=O)N[C@@H](CC(N)=O)C(=O)N[C@H]2C(=O)N[C@H]3C(=O)N[C@H](C(=O)N[C@H](C(=O)O)c4cc(O)cc(O)c4-c4cc3ccc4O)[C@H](O)c3ccc(c(Cl)c3)Oc3cc2cc(c3O[C@@H]2O[C@H](CO)[C@@H](O)[C@H](O)[C@H]2O[C@H]2C[C@](C)(NCc3ccc(-c4ccc(Cl)cc4)cc3)[C@H](O)[C@H](C)O2)Oc2ccc(cc2Cl)[C@H]1O is reported as 6.6 h (mouse, plasma; intravenous, 75 mg/kg (MTD)).
For CCN(CC)C12C3CCC4C3C3C(CCC31)C42, the inhibition was 0% (Matrix protein 2 (Influenza A virus, UniProt P0DOF5); inhibitor; 100 µM).
O=C(CCCCCCCCCN=C=S)CC(=O)N[C@H]1CCOC1=O gave an Emax of roughly 40% (lasR (Pseudomonas aeruginosa, UniProt P25084); partial agonist).
CC(CCC(=O)NC(CCCCNC(=O)C(F)(F)F)C(=O)O)C1CCC2C3C(O)CC4CC(O)CCC4(C)C3CC(O)C12C (stereo not drawn) gave a Km of 8.99 ± 2.79 µM (SLC10A1 (Homo sapiens, UniProt Q14973); substrate).
CC(C)C[C@@H]1NC(=O)[C@H](Cc2ccc(O)cc2)NC(=O)[C@H](CO)NC(=O)[C@H](C)NC(=O)[C@@H](NC(=O)[C@@H]2CCCN2C(=O)[C@H](CC(N)=O)NC(=O)[C@H](Cc2ccc(O)cc2)NC(=O)[C@H](CCCCN)NC(=O)[C@H](C)NC(=O)[C@H](C)NC(=O)[C@@H](N)CC(N)=O)CSC1=O: “agr system activity” “inhibited” (Accessory gene regulator protein C (Staphylococcus epidermidis, UniProt Q5HMY3); group-I agr signalling, inhibitor; concentration not given).
CC(C)C[C@@H](N)C(=O)NCC(=O)N[C@H](C)C(=O)N[C@H](CO)C(=O)N[C@H](Cc1c[nH]c2ccccc12)C(=O)N[C@H](Cc1c[nH]cn1)C(=O)N[C@H](CCCNC(=N)N)C(=O)N1CCC[C@@H]1C(=O)N[C@H](CC(=O)O)C(=O)N[C@H](CCCCN)C(=O)O gave a binding improvement of 13.7 fold (CXCR4 (Homo sapiens, UniProt P61073); competitive antibody binding; concentration not given; reference: compound over parent V1 peptide).
COc1ccc2c(c1OC)CO/C(=C\c1cc[n+](Cc3ccc(F)cc3)cc1)C2=O has a selectivity ratio of greater than 230 (ACHE (Homo sapiens, UniProt P22303); reference: BChE IC50 over AChE IC50).
N[C@@H](CN[C@@H](CN[C@@H](CC(=O)O)C(=O)O)C(=O)O)C(=O)O gave a Hill coefficient of roughly 4 (blaNDM-1 (Klebsiella pneumoniae, UniProt C7C422); enzyme activity, inhibitor; with: Zn2+ 10 µM).
For CCCCCC1=C(NCC)C(=O)C(C/C=C(\C)CCC=C(C)C)=C(O)C1=O, activity read “inactive” (cannabinoid receptor CB1; concentration not given).
NC1CC1c1ccc(NC(=O)c2cccc(NC(=O)OCc3ccccc3)c2)cc1 (stereo not drawn) gave an inhibition of 46% (MAOA (Homo sapiens, UniProt P21397); concentration not given).

Some of these lines once more:
Cc1cc(O)cc(C)c1C[C@H](N)C(=O)N[C@@H]1CCNc2ccc(Cc3ccccc3)cc21 gave a stimulation of 81% (Oprm1 (Rattus norvegicus, UniProt P33535); agonist; concentration not given).
With CC1=C(C)C(=O)OC(C(C)(O)C2(O)CCC3(O)C4CC5OC56CC=CC(=O)C6(C)C4CCC32C)C1 (stereo not drawn) the IC50 was 6.58 µM (A549; cell growth).
CC(C)C[C@H](NC(=O)c1ccccc1N)C(=O)N[C@@H](Cc1ccccc1)C(=O)N[C@@H](CCCCNc1ccc([N+](=O)[O-])cc1[N+](=O)[O-])C(=O)O gave a Km of 4 to 12 µM (Angiotensin-converting enzyme, C-domain (Mus musculus, UniProt P09470); substrate; C-domain selective substrate).
For N[C@@H](CCSC[C@H](N)C(=O)O)C(=O)O, the Km was roughly 83 µM (cystathionine beta-synthase; substrate).
CC(C)C[C@@H](N)C(=O)NCC(=O)N[C@H](C)C(=O)N[C@H](CO)C(=O)N[C@H](Cc1c[nH]c2ccccc12)C(=O)N[C@H](Cc1c[nH]cn1)C(=O)N[C@H](CCCNC(=N)N)C(=O)N1CCC[C@@H]1C(=O)N[C@H](CC(=O)O)C(=O)N[C@H](CCCCN)C(=O)O gave a binding improvement of 13.7 fold (CXCR4 (Homo sapiens, UniProt P61073); competitive antibody binding; concentration not given; reference: compound over parent V1 peptide).
